Measurements collected from several papers.
Each numbered part is a random draw from the data of one study; scales do not carry over between parts. Several values in a cell are separate wells, animals, samples, runs or records.
Chain of UniProt Q92630 (whole entry, looked up): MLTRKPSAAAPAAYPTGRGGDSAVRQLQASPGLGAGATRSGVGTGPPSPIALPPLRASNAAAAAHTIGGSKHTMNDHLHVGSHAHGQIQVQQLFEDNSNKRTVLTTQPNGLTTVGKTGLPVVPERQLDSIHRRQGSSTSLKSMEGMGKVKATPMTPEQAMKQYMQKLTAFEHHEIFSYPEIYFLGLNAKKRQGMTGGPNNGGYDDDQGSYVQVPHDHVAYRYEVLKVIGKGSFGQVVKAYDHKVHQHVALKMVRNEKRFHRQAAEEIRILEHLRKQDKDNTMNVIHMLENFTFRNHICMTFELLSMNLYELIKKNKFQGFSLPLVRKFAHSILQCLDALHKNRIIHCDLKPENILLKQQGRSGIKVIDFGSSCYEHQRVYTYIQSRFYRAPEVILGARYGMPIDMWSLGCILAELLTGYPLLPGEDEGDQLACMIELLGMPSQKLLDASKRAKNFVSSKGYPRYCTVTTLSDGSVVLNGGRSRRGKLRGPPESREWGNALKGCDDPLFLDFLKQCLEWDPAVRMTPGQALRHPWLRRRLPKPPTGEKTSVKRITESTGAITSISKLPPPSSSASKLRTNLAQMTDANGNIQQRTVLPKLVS

Sample 1 — effect on: enzyme activity; action: inhibitor; tested at: 0.5 µM; relative to: control
Target: NUAK family SNF1-like kinase 1 (NUAK1, Homo sapiens, UniProt O60285)
Construct (O60285 1-661): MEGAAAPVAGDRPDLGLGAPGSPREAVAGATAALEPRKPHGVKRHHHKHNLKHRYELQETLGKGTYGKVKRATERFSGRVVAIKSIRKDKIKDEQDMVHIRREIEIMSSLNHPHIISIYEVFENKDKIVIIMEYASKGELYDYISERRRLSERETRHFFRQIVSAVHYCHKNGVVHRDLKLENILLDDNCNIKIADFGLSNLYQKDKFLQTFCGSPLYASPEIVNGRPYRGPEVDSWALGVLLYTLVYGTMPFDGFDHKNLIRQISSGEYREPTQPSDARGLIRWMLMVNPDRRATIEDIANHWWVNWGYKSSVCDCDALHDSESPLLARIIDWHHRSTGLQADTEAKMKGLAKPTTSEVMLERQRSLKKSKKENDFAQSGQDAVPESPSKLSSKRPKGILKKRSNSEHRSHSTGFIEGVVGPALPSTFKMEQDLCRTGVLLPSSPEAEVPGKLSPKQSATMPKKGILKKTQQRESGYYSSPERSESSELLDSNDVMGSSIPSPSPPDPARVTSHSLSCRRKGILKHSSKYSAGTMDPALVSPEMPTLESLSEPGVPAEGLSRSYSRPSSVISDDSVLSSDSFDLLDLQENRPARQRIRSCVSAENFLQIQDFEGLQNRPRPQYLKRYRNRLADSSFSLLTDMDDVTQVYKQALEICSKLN
| SMILES | remaining activity [%] |
| --- | --- |
| COc1cc2ncnc(N3CCN(C(=O)Nc4ccc(Oc5ccccc5)cc4)CC3)c2cc1OC | 88.8 |
| O=C(Nc1ccc(Cl)cc1)c1ccccc1NCc1ccncc1 | 96.5 |
| CC(C)c1nn(-c2c(Cl)cccc2Cl)c2nc(Cc3ccc(OCCO)cc3)[nH]c(=O)c12 | 96.9 |

Sample 2 — technique: protein-binding microarray; molecule type: double-stranded DNA, one strand shown; matrix: in vitro; tested at: 250 nM; notes: 60-bp whole probe; with: salmon DNA 0.4 mg/ml; relative to: random background probes; direction: higher = stronger binding; shared flanks, not repeated: GCCTAGCAC … GTCTTGATTCGCTTGACGCTGCTG
Target: Interferon regulatory factor 7, full length, phosphomimetic (IRF7, Homo sapiens, UniProt Q92985, residues 1-503, S101K/S471D/S472D/S475D/S476D/S477D/S483D/S484D/S487D)
Residues (chain): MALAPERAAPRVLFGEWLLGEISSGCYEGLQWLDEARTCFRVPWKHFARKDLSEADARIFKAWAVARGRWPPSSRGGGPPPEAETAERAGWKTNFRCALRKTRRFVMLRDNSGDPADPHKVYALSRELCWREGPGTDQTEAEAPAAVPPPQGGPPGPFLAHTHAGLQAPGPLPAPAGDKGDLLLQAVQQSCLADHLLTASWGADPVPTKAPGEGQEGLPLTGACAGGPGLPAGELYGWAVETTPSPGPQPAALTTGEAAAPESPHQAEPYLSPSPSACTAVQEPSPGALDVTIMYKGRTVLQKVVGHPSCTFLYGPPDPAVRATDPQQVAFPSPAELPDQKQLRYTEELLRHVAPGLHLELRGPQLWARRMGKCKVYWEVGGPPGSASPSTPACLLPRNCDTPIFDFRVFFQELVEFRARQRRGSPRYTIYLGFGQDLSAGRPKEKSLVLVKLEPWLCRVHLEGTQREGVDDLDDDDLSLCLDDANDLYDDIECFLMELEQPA
| Strand | log fluorescence [z-score] |
| --- | --- |
| TCATTTTTCTGCTTAGAACTGTGCTAG | 1.42 |
| GACGGTACCGGTCTCGGGACGTGCTAG | 0.304 |
| GGTCTGGCTGGCTCCTGCACGTGCTAG | -1.16 |
| GACGATATCGGGACTGGAGATGTGCTA | -0.371 |
| TCAGCCCTCGGTTTACAACTGTGCTAG | 0.113 |
| TTAGGTTTCGGGTTTCGGTTGGTGCTA | 12.4 |
| CTTGTTTTACAATTTGCTTTGTGCTAG | 1.21 |
| TCAGCTTGGTGTCTCTGACTGTGCTAG | -0.816 |

Sample 3 — technique: RNA Bind-n-Seq; molecule type: RNA; matrix: in vitro; tested at: 1 µM; notes: whole 134-nt RNA, ends assumed; with: 150 mM KCl; relative to: input library; direction: higher = stronger binding
Target: Ras GTPase-activating protein-binding protein 1, RRM domain (G3BP1, Homo sapiens, UniProt Q13283)
Chain of UniProt Q13283 (whole entry, looked up): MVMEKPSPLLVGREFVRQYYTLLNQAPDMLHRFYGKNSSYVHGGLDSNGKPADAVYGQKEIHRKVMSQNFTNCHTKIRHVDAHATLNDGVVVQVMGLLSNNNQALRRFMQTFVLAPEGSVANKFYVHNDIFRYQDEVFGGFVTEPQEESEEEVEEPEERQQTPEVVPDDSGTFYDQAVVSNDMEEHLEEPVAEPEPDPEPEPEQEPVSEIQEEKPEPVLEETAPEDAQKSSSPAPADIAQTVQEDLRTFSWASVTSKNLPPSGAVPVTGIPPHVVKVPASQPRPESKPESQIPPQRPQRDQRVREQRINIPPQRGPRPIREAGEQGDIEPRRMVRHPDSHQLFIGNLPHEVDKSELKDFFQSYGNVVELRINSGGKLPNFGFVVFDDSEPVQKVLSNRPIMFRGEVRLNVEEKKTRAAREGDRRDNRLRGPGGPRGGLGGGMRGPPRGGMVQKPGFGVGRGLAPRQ
| Strand | log2 enrichment |
| --- | --- |
| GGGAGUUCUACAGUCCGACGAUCGCAGGAAGUAAAAACAAAUGGAAAUGCUUGGGAUAGUGGCAGGGGUGGGGGUUGCUAAGGAAAGGGUGGGAUGGGAGUGGGUAAAGAGUUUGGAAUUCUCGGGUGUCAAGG | 1.26 |
| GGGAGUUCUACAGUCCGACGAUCCUCAAGUCCUGUGCUACACAUCGUAUGUACCGAAUCGGGCCGGCCGGGCCGGGAAAGUAUUAUGUUACGCCGUUCGGAUCUGCACUUCCAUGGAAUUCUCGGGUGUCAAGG | -0.548 |
| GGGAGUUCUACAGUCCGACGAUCAGUCCUGUGCUACACAUCGUAUGUACCGAAUCGGGUUUUUGGGAAAAAGGGUUUGGGAAAGUAUUAUGUUACGCCGUUCGGAUCUGCACUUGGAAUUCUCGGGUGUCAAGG | 0.208 |
| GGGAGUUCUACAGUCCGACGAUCACCAUGCAGGUGGGCAUCUUUGGGAAGUGGGGCAAGGGGGGGAUAGGGAGGGGGGUAACACUUUGGGAACAAGUGGUCCCAGGUCGUUUCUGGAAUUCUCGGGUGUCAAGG | 0.8 |
| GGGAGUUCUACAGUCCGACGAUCAGUCCUGUGCUACACAUCGUAUGUACCGAAUCGGGCCCCGGGCCCCGGGCCCCGGGGAAAGUAUUAUGUUACGCCGUUCGGAUCUGCACUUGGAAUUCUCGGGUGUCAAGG | -1.01 |
| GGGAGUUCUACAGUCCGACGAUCCCUCAAGUCCUGUGCUACACAUCGUAUGUACCGAAUCGGGCGGGCGGGCGGGAAAGUAUUAUGUUACGCCGUUCGGAUCUGCACUUCCAGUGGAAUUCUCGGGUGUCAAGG | 0.897 |
| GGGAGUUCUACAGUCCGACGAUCGUCCUGUGCUACACAUCGUAUGUACCGAAUCGGGAAAGGGUUUUUUUGGGUUUUUGGGAAAGUAUUAUGUUACGCCGUUCGGAUCUGCACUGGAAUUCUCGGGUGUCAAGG | 0.103 |
| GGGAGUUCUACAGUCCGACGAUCAGUCCUGUGCUACACAUCGUAUGUACCGAAUCGGUUUUUUUGGUUUUUUUGGUUUGGAAAGUAUUAUGUUACGCCGUUCGGAUCUGCACUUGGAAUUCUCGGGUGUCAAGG | -0.281 |

Other studies, line by line
| Structure (SMILES) | target or system | assay | setting | scale | endpoint | value |
| --- | --- | --- | --- | --- | --- | --- |
| CN(C)C(=O)Cn1cc(-c2nc([C@@](C)(c3ccc(-c4cnc(N)nc4)cc3)C3CC3)no2)cn1 | DYRK2 (Homo sapiens, UniProt Q92630) | cell-free assay, competition with immobilised ligand | 1 µM |  | remaining binding | 89% |
| Cn1cncc1[C@@](O)(COc1ccc(C#N)cc1-c1ccc(OC(F)(F)F)cc1)c1ccc(C#N)cc1 | HEK293T | high-content imaging | 10 µM, 12 h, 1 normal, negative death, unit not given | relative to: untreated growth | GR value | -0.704 and -0.0138 |
